Results from different studies.
Each line is one published result; not all experiments were run side by side. Numbers after ± are the reported error.

SMILES	cell line	test	conditions	how to read	quantity	result
COc1ccc([C@@H]2CC(=O)c3c(O)cc(O[C@@H]4O[C@H](CO[C@@H]5O[C@@H](C)[C@H](O)[C@@H](O)[C@H]5O)[C@@H](O)[C@H](O)[C@H]4O)cc3O2)cc1O	MRC5	trypan blue exclusion	150 µg/mL, 72 h	–	cell count	17900 ± 508
Cc1ccc(C(C)C)cc1.[Cl-].[Cl][Ru+].[Ru+].c1ccc(-c2cn(CCCCOc3ccccc3-c3nc4ccccc4s3)nn2)nc1	MCF7	PI flow cytometry, refers to: sub-G0 phase	8 µM, 24 h	–	cells in phase	0.08%
COc1cc(CN2CCN(c3ccccc3Cl)CC2)c2cc3[n+](cc2c1O)CCc1cc2c(cc1-3)OCO2	Ca-Ski and MDCK	SRB	48 h	relative to: CC50 MDCK over IC50 Ca-Ski	therapeutic index	34
N=C(N)Nc1ccc2[nH]c(-c3ccc(-c4nc5cc(NC(=N)N)ccc5[nH]4)cc3)nc2c1	sample A patient fibroblasts	MBNL1 exon 5 splicing rescue	–	–	lowest effective concentration	200 µM
CC(=O)OC[C@H]1O[C@@H](Sc2sc(C(=O)c3ccc(C)cc3)c(N)c2-c2nc3ccccc3s2)[C@H](OC(C)=O)[C@@H](OC(C)=O)[C@H]1OC(C)=O	UACC-257	SRB	10 µM, 48 h	relative to: untreated	growth	98.5%
CC(C)c1cccc(C(C)C)c1-n1c(Cl)c(Cl)n(-c2c(C(C)C)cccc2C(C)C)c1=[Se].[Cl][Ag]	A2780 ADR	MTT	–	relative to: A2780 ADR over A2780	resistance factor	0.5
[Cl-].[Cl][Ru-]1[S+]=C(N2CCCC2)N[N+]1=Cc1ccc(N(c2ccccc2)c2ccccc2)cc1.c1ccccc1	HeLa S3	–	10 µM, 24 h, then 10 days growth	–	colony formation	inhibited
CCC(=C(c1ccc(Cl)cc1)c1ccc(OCCCN(C)C)cc1)c1ccc(OC)cc1	Ishikawa	estrogenic activity, agonist	100 nM, 72 h, unit not given	relative to: DMSO	alkaline phosphatase activity	1.86 ± 0.73
COC(=O)CCC(=O)Oc1ccc(/C=C/C(=O)CC(=O)/C=C/c2ccc(O)c(OC)c2)cc1OC	MHCC97H	Annexin V/PI flow cytometry	10 µM, 24 h	–	apoptotic cells	37.4 ± 1.56%
COc1cc(CNC(=O)C[C@H](C)CCC=C(C)C)ccc1OCc1cn(-c2ccc([N+](=O)[O-])cc2)nn1	NCI-H322M	SRB	10 µM, 48 h	–	growth percent	92.3%
CC(=O)OC[C@H]1O[C@@H](Sc2sc(C(=O)c3ccc(Br)cc3)c(N)c2-c2nc3ccccc3s2)[C@H](OC(C)=O)[C@@H](OC(C)=O)[C@@H]1OC(C)=O	SN12C	SRB	10 µM, 48 h	relative to: untreated	growth	98%
COc1cc(CNC(=O)C[C@H](C)CCC=C(C)C)ccc1OCc1cn(-c2cccc(Cl)c2)nn1	KM12	SRB	10 µM, 48 h	–	growth percent	94.3%
N=C(N/N=C/c1ccc(F)cc1)N/N=C/c1ccc(F)cc1	PANC-1	crystal violet	72 h	relative to: IC50 hTERT-HPNE over IC50 PANC-1	selectivity ratio	1.7
COc1cc(CNC(=O)C[C@H](C)CCC=C(C)C)ccc1OCc1cn(-c2cccc(C(F)(F)F)c2)nn1	SN12C	SRB	10 µM, 48 h	–	growth percent	27.1%
Cc1nnc(-c2ccc(CNC(=O)CCCCCOc3cccc4c3C(=O)N(C3CCC(=O)NC3=O)C4=O)cc2)nn1 (stereo not shown)	A-375	degrader, immunoblot	concentration not given	–	ERK1/2 protein level	no effect
COc1cc(CNC(=O)C[C@H](C)CCC=C(C)C)ccc1OCc1cn(-c2ccccc2F)nn1	NCI-H322M	SRB	10 µM, 48 h	–	growth percent	92.7%
O=Cc1c(O)ccc2ccccc12	HUVEC	RNA sequencing, refers to: MCM6	75 µM, 24 h	relative to: DMSO	log2 fold change	-2.99
N=C(N/N=C/c1cncnc1)N/N=C/c1cncnc1	PANC-1	crystal violet	72 h	relative to: IC50 IMR-90 over IC50 PANC-1	selectivity ratio	0.8
COc1cc(CNC(=O)C[C@H](C)CCC=C(C)C)ccc1OCc1cn(-c2cccc([N+](=O)[O-])c2)nn1	KM12	SRB	10 µM, 48 h	–	growth percent	91.3%

Some of these lines once more:
SMILES	cell line	test	conditions	how to read	quantity	result
[Cl-].[Cl][Ru-]1[S+]=C(N2CCCC2)N[N+]1=Cc1ccc(N(c2ccccc2)c2ccccc2)cc1.c1ccccc1	HeLa S3	–	10 µM, 24 h, then 10 days growth	–	colony formation	inhibited
COc1cc(CNC(=O)C[C@H](C)CCC=C(C)C)ccc1OCc1cn(-c2cccc(Cl)c2)nn1	KM12	SRB	10 µM, 48 h	–	growth percent	94.3%
